# Results from different studies.
# Protocols differ between the studies behind these lines. ± marks the error that the study gave.
Structure (SMILES),technique,sample,time,pH,temperature,notes,solubility
Cc1c([C@H]2COC[C@@H](c3ccc(C(C)(C)C)cc3)N2)cnn1-c1ccccc1,"shake-flask, LC-HRMS",aqueous buffer,16 h,pH 6.8,,,< 4 µM
CCCSc1ccc2nc(NC(=O)OC)[nH]c2c1,LC-MS,DPBS,18 h,,,,1.9 µM
CCCCCCCCCCCCCCCC(=O)NCCOC(=O)C[C@@H](CN)CC(C)C,,hydrochloride buffer,12 h,pH 1.2,37 °C,,5560 µg/mL
COc1ccc(-c2cc(=O)c3c(OC)cc(OC)cc3o2)cc1,HPLC,ethanol:butylene glycol 25:75,,,,,12514 ± 11 ppm
CCOC(=O)N1C[C@@H](c2ccccc2O)N[C@@H](c2ccc(C(F)(F)F)cc2)C1,"shake-flask, LC-HRMS",aqueous buffer,16 h,pH 6.8,,,< 4 µM
CONc1ccnc(Nc2cccc(-c3cccnc3)c2)n1,,citrate phosphate-buffered saline,18 h,pH 7.4,,1% DMSO,57.7 ± 0.8 µM
Cc1cc(Nc2ccnc3ccc(-c4ccc(S(=O)(=O)N5CCOCC5)cc4)cc23)on1,thermodynamic,aqueous medium,,,,,3 µM
C=CCNc1nc(C)c(-c2ccnc(Nc3cccc([N+](=O)[O-])c3)n2)s1,,aqueous buffer,,pH 7.4,,,< 1.32 µg/mL
CC(C)Nc1ccnc(Nc2cccc(-n3ccnc3)c2)n1,,citrate phosphate-buffered saline,18 h,pH 7.4,,1% DMSO,51.9 ± 2.9 µM
Cc1nc(N)sc1-c1ccnc(Nc2ccc(N(C)C)cc2)n1,,aqueous buffer,,pH 7.4,,,< 1.17 µg/mL
O=C(NC1(C(F)(F)F)CC1)c1ccccc1,,PBS,,pH 7.4,25 °C,2% DMSO,393 µM
Cc1c(NC(=O)C2CCCN2S(=O)(=O)c2ccccc2)c(=O)n(-c2ccccc2)n1C (stereo not shown),,aqueous buffer,,pH 7.4,,,169 µg/mL
Clc1cc(Cl)cc([C@H]2COC[C@@H](C3CCCCC3)N2)c1,"shake-flask, LC-HRMS",aqueous buffer,16 h,pH 6.8,,,< 4 µM
CCCC(=O)Nc1cc(C2CC2)[nH]n1,,aqueous buffer,,pH 7.4,,,1180 µg/mL
Nc1nc2c(ncn2COCCO)c(=O)[nH]1,,methanol + ethanol,24 h,,298.2 K,mass fraction 0.8,365 µg/mL
O=C(c1cc(Cc2n[nH]c(=O)c3ccccc23)ccc1F)N1CCN(C(=O)C2CC2)CC1,,1.4% w/v Gelucire,,,,,20 µg/mL
O=C(O)c1ccc(C(=O)Nc2cc(C3CC3)n[nH]2)cc1,,aqueous buffer,,pH 7.4,,,1900 µg/mL
Cn1cc([C@@H]2COC[C@H](c3ccc(C(F)(F)F)cc3)N2)cn1,"shake-flask, LC-HRMS",aqueous buffer,16 h,pH 6.8,,,> 750 µM
CCC(C)n1ncn(-c2ccc(N3CCN(c4ccc(OCC5COC(Cn6cncn6)(c6ccc(Cl)cc6Cl)O5)cc4)CC3)cc2)c1=O (stereo not shown),,FeSSIF,,pH 5.0,,,7 µg/mL
COc1ccc([C@@H]2COC[C@H](c3cccc(Br)c3)N2)cc1,"shake-flask, LC-HRMS",aqueous buffer,16 h,pH 6.8,,,< 4 µM
COc1ccc([N+](=O)[O-])cc1NC(=O)C(C)Oc1ccccc1C (stereo not shown),,aqueous buffer,,pH 7.4,,,< 3.54 µg/mL
Clc1ccc([C@@H]2COC[C@H](c3ccc(-c4ccccn4)cc3)N2)cc1,"shake-flask, LC-HRMS",aqueous buffer,16 h,pH 6.8,,,< 4 µM
O=C(Nc1ccc(OC(F)(F)F)cc1)N[C@H]1CC[C@H](Oc2ccc(C(=O)O)cc2)CC1,,deionised water,60 min,pH 6.6,37 °C,non-sink dissolution,0.169 µg/mL
N#Cc1ccccc1[C@@H]1COC[C@]2(CC[C@H](c3ccccc3)CC2)N1,"shake-flask, LC-HRMS",aqueous buffer,16 h,pH 6.8,,,> 750 µM
Clc1nc(OCc2ccccc2)c2[nH]cnc2n1,UV absorbance,culture medium,,,,stock diluted to 0.40 mM,120 µM

# A few entries again:
Structure (SMILES),technique,sample,time,pH,temperature,notes,solubility
Cn1cc([C@@H]2COC[C@H](c3ccc(C(F)(F)F)cc3)N2)cn1,"shake-flask, LC-HRMS",aqueous buffer,16 h,pH 6.8,,,> 750 µM
Clc1ccc([C@@H]2COC[C@H](c3ccc(-c4ccccn4)cc3)N2)cc1,"shake-flask, LC-HRMS",aqueous buffer,16 h,pH 6.8,,,< 4 µM
